Results pooled from the literature.
Compare with care: the assays were run in different laboratories. “And” joins repeats or separate records; there may be more than shown.

Compound	test	test system	conditions	scale	quantity	value
CC(C)c1nc(N(C)S(C)(=O)=O)nc(-c2ccc(F)cc2)c1/C=C/[C@@H](O)C[C@@H](O)CC(=O)O	–	humans, plasma	oral, dose not given, added: fenebrutinib 200 mg twice daily	relative to: with over without fenebrutinib	AUC(0-t) ratio	~2.66 fold and 2.66 fold
COc1cccc(-c2ccc(NC(=O)C3=C(C(=O)O)CCC3)c(F)c2)c1	–	human, male, plasma	oral, 50 mg once daily, day 13, geometric mean	–	AUC(0-t)	307000 ng·h/mL
Cc1ccc(NC(=O)c2ccc(CN3CCN(C)CC3)cc2)cc1Nc1nccc(-c2cncc(-c3oncc3C)c2)n1	–	older healthy human adults, plasma	oral, 100 mg single dose, fed, mean	–	AUC(0-t)	114000 ng·h/mL
[2H]C([2H])([2H])Oc1cc2c(cc1OC([2H])([2H])[2H])C1CC(=O)C(CC(C)C)CN1CC2 (stereo not shown)	geometric mean ratio, crossover, item: alpha-dihydrotetrabenazine	human, fasted, plasma	oral, 15 mg	relative to: compound over tetrabenazine 25 mg fasted	AUC(0-t) ratio	116%
COc1cc(Nc2ncc3c(n2)-c2ccc(Cl)cc2C(c2c(F)cccc2OC)=NC3)ccc1C(=O)O	–	human, plasma	oral, 50 mg single, fasted	–	AUC(0-t)	21.2 µM·h
CCOc1c([C@H](C)n2nc(C)c3c(N)ncnc32)cc(Cl)c(F)c1[C@@H]1CNC(=O)C1	–	healthy fasted humans, plasma	oral, 20 mg	–	AUC(0-t) geometric mean	14.2 µM·h
CC(C)[C@@H](CS(=O)(=O)C(C)C)N1C(=O)[C@@](C)(CC(=O)O)C[C@H](c2cccc(Cl)c2)[C@H]1c1ccc(Cl)cc1	–	human, plasma	oral, 60 mg, new tablet fasted	–	AUC(0-t) geometric LS mean	2860 ng·h/mL
CNc1nc(Nc2ccc(-n3cnc(C)n3)c(OC)c2)nc2c1CC[C@H]2c1ccc(F)cc1	–	human	oral, 200 mg once daily, day 1, multiple ascending dose	–	AUC(0-t)	8020 ng·h/mL
Nc1ccn([C@@H]2O[C@H](CO)[C@@H](O)C2(F)F)c(=O)n1	LC-MS/MS	human	intravenous, day 15, added: lonafarnib	relative to: compound alone on day 1	AUC(0-t) ratio	109%
C=CC(=O)N1CCC(CNc2ncnc(N)c2-c2ccc(Oc3ccccc3)cc2)CC1	–	healthy male human, plasma	oral, 75 mg	relative to: compound over total radioactivity	AUC(0-t) ratio	10%
C=C(C)[C@@H]1CC[C@]2(NCCN3CCS(=O)(=O)CC3)CC[C@]3(C)[C@H](CC[C@@H]4[C@@]5(C)CC=C(C6=CC[C@@](CF)(C(=O)O)CC6)C(C)(C)[C@@H]5CC[C@]43C)[C@@H]12	–	healthy human volunteers, plasma	oral, 200 mg, tablet, high-fat state, mean	–	AUC(0-t)	36000 ng·h/mL
C=CC(=O)Nc1cc(Nc2ncc(C(=O)OC(C)C)c(-c3cn(C)c4ccccc34)n2)c(OC)cc1N(C)CCN(C)C	–	human, fasted	oral, 120 mg single dose, arithmetic mean	–	AUC(0-t)	485 ng·h/mL
CC(C)NC[C@@H](C(=O)N1CCN(c2ncnc3c2[C@H](C)C[C@H]3O)CC1)c1ccc(Cl)cc1	–	human, hepatic impairment Healthy (Child-Pugh), plasma	oral, 100 mg single, geometric mean	–	AUC(0-t)	277 ng·h/mL

Excerpt of the above:
Compound	test	test system	conditions	scale	quantity	value
COc1cccc(-c2ccc(NC(=O)C3=C(C(=O)O)CCC3)c(F)c2)c1	–	human, male, plasma	oral, 50 mg once daily, day 13, geometric mean	–	AUC(0-t)	307000 ng·h/mL
Nc1ccn([C@@H]2O[C@H](CO)[C@@H](O)C2(F)F)c(=O)n1	LC-MS/MS	human	intravenous, day 15, added: lonafarnib	relative to: compound alone on day 1	AUC(0-t) ratio	109%
